Measured values collected from several papers.
A part holds a random share of what one study measured. Changes are numbered by the printed parent chain.
UniProt P51668, sequence (whole entry, looked up): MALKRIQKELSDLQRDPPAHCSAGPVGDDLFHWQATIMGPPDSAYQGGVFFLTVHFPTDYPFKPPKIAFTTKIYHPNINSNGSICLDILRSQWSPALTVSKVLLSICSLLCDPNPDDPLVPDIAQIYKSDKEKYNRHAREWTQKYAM
UniProt Q9H832, sequence (whole entry, looked up): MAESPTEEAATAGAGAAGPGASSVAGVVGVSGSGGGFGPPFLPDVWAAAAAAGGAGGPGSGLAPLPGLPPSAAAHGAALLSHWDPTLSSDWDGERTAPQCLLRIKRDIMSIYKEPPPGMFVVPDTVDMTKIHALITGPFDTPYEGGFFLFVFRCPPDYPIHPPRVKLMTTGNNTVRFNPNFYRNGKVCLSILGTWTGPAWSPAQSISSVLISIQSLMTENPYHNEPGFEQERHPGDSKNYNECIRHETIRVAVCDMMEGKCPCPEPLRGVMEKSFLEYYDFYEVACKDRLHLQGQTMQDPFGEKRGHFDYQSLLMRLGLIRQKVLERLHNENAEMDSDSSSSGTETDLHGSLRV
UniProt P61081, sequence (whole entry, looked up): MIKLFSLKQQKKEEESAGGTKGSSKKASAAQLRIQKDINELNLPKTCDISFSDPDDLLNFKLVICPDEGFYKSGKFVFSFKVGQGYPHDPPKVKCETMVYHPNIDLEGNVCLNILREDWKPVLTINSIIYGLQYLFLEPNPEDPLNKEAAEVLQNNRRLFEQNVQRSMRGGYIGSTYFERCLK
UniProt P62253, sequence (whole entry, looked up): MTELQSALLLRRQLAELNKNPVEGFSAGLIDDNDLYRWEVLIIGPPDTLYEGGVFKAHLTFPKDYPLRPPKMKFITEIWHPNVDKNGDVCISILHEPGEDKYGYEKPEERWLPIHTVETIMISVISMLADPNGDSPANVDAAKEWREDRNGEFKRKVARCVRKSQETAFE
UniProt P63146, sequence (whole entry, looked up): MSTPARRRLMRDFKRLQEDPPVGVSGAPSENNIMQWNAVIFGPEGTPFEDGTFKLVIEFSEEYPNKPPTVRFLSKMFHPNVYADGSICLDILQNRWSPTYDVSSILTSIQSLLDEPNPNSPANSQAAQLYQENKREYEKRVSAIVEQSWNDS
UniProt Q969T4, sequence (whole entry, looked up): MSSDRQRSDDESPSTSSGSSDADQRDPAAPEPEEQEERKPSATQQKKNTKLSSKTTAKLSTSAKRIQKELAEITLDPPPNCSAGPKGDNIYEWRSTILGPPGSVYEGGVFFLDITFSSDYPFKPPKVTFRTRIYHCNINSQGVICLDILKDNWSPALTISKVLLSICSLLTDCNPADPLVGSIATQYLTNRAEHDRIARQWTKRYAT
UniProt Q9C0C9, sequence (whole entry, looked up): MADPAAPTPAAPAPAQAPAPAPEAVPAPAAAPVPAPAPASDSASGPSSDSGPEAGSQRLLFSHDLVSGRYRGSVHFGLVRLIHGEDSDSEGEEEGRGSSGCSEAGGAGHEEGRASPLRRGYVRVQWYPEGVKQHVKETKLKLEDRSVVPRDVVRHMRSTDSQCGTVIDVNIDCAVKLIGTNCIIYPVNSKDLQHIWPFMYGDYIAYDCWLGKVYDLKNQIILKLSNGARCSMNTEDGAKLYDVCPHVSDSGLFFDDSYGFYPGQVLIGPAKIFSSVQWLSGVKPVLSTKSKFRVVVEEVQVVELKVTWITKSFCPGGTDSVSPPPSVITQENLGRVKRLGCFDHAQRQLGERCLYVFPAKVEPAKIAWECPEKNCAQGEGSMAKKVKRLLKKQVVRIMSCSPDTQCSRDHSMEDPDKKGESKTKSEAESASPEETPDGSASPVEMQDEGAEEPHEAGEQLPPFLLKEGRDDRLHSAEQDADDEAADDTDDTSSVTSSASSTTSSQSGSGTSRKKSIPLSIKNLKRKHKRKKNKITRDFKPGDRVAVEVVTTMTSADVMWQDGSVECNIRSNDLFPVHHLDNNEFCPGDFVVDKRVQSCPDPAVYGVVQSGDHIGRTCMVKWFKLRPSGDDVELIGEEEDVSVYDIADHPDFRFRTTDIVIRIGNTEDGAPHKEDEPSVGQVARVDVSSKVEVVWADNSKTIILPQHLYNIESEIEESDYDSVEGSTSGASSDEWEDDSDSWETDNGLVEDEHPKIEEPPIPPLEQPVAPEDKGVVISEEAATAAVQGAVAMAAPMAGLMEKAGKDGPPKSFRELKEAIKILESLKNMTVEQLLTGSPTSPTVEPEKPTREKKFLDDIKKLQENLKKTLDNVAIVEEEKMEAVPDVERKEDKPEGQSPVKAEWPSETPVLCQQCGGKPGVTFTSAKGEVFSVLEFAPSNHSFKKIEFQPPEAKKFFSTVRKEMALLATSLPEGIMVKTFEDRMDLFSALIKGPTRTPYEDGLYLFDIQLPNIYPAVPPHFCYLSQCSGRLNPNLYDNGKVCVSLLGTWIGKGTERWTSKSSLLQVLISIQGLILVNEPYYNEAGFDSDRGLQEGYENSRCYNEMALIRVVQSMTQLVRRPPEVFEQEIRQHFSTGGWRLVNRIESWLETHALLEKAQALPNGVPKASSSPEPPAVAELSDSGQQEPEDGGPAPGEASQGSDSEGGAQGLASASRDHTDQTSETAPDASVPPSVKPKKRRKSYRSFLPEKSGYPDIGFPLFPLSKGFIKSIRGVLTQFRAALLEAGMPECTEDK

Block 1
Target: CCND1, cyclin fold, Cln2 fusion (human)
Method: yeast growth competition, sequencing
Sample: yeast
Notes: strong parent motif
Reference: not given
Reading: higher = stronger binding
Parent: RBL1 docking peptide (human); GSAKRRLFGEDPP; partner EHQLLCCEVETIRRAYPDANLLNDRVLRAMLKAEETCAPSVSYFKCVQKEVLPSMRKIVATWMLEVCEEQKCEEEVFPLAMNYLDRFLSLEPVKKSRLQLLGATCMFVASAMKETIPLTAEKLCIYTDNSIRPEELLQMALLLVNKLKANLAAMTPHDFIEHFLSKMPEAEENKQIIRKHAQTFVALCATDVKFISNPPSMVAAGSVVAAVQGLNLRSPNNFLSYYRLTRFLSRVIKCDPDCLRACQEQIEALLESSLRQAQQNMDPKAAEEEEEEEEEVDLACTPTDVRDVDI
| Change | normalised enrichment score |
| --- | --- |
| G1L | 2.46 |
| P13E | 2.51 |
| K4Q | 0.859 |
| S2I | 0.908 |
| D11N | 1.14 |
| S2W | -0.199 |
| P12W | 1.49 |
| R5F | 0.692 |
| R6C | 1.23 |
| F8H | 0.247 |
| S2N | 1.75 |
| A3I | -0.0401 |
| D11C | 1.15 |
| A3D | 0.229 |
| S2H | 1.44 |
| A3L | 0.0925 |
| L7T | -0.321 |
| P13V | 2.48 |
| G9M | 2.77 |

Block 2
Target: RING finger protein unkempt homolog, zinc fingers 1-6, GST-SBP tag (UNK, Homo sapiens, UniProt Q9C0B0, residues 30-357)
Method: RNA Bind-n-Seq
Form: RNA
Sample: in vitro
Tested at: not given
Notes: RNA with constant flanks, ends assumed
Reference: input RNA pool
Reading: higher = stronger binding
Constant ends, left off below: GGGAGUUCUACAGUCCGACGAUC … CAACAGAGGAUUGAGCAUCA
Residues (chain): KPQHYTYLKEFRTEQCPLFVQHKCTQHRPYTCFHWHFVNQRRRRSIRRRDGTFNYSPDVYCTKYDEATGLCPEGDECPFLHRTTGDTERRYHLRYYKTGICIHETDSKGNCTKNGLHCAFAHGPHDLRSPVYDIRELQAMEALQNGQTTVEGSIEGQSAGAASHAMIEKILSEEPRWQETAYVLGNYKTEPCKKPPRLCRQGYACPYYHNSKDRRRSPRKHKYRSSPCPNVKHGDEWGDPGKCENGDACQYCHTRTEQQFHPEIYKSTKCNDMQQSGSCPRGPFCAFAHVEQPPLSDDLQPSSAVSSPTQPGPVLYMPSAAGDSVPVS
| Oligonucleotide | bound/input enrichment [ratio] |
| --- | --- |
| GCCACAUUUGCUAUUUCCAUCCUGCAACAGUUGGAGAUUGAGUUCAAGGAGACCCAAGCACCCGUAUUGGCCCCCACCAGAGAACUGGCUCAACAGAUCCAAAAGGUAAUUCUGGCACUU | 0.2 |
| AUGCGUGCUGCUGGAAGGCUCUCCGUUUCUCCGAGAACCGGGAAGGACGUUGGUGCCGAGGACAUUGGCUACCAUGAGUUCCGGUGCGCUGUUGCCCAAACCACAGAUGCGUGGUCUUCU | 0.0541 |
| GGGAUUUACAUGGUUUAUUGUCGAAAACACAAGAAAACUGCACAUAACUCGGAAGCUGAUUCCGAAGAAAGUUUUAAUGAGCAUGAACUGGAGCCCUCAUCUCCAAAGACUAAGAAGAAA | 0.222 |
| ACCAUUUUCGCGGUUCAGGCUUUGUGUGUAGUUCACUUACGGUAUUAAAUUAUUAUUCUGCUCCGCUUAUAAUAAGGAUAAUUGCAUUUAAAGAGGUUACUGAAUGUUACUCUGAAACUU | 0.486 |
| GCAGAUGCUGAGGUUGCCAGGAGGAAAUCAGUCCCAUCAGAGACUGUGGUUGAGGACCGUCGUACUGGCUUGCCCCCGGUAACUGAUGAAAACCAUGUCAUUGUAAAAACGGACAGUCAG | 0.0855 |
| CCUGUCUCAGGUUCAAAAGCUGCUUUGCAUGUGCCCAGUAGAUUUUCAUGGAAUCUUCCAACCCGAUGAAAGACGGAGAGAUGCAGUGAUUGCAUUGGGCAUUUUUCUCAUUGAAUCUGA | 0.169 |
| GAUUACAAGGGGCAGAAACUAGCUGAACAGAUGUUUCAGGGGAUCAUUCUUUUUUCUGCAACCGUUGGGUUUAUCUACGGGUACGUGGCUGAACAGUUUGGGUGGACUGUCUACAUAGUU | 0.467 |
| UGAAAAUGGCUUCUGCUCCAUUAAAAAGUAAAAAUUGUCCUCCAAAUAUAAAACUCCUUAACCGAUAUUUUUGAAAUUAAAAUCUUUAAAUUUUAUAAAUCAGCUGUUGCCACUACACAA | 4.85 |
| GAGCAACGGAGAGCCCCACUUUCUACCAGAUGCAAUGUUUGGGCAACCAGGAGCCCCCGGCCGCACUCCAUUUCUUGGUCAGCAUGGUUUUAAUUUUUUUCCCAGUGGGAUUGACUUCUC | 0.252 |

Block 3
Target: Interferon regulatory factor 3, full length, phosphomimetic (IRF3, Homo sapiens, UniProt Q14653, residues 1-427, S386D/S396D/S398D/S402D/T404D/S405D)
Method: protein-binding microarray
Form: double-stranded DNA, one strand shown
Sample: in vitro
Tested at: 2540 nM top
Notes: 60-bp whole probe
Added: salmon DNA 0.4 mg/ml
Reference: random background probes
Reading: higher = stronger binding
Constant ends, left off below: GCCTAGCAC … GTCTTGATTCGCTTGACGCTGCTG
Residues (chain): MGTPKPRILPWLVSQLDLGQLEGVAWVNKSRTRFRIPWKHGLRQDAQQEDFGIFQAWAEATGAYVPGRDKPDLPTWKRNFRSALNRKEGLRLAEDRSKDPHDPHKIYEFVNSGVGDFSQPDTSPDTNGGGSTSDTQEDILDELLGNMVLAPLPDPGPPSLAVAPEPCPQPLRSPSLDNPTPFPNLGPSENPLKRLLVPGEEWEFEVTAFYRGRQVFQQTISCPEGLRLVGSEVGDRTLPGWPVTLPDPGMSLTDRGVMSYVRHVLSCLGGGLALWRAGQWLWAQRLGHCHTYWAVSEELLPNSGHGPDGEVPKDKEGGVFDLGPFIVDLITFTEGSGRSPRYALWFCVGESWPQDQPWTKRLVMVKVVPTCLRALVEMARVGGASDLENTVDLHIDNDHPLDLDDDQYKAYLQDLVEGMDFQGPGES
| Oligonucleotide | fitted relative affinity [z-score] |
| --- | --- |
| TTAGGTCTCCTAGTGCTTTAGTGCTAG | 0.67 |
| TAGAGGGAGTAAAGGAAAGAGTGCTAG | -0.724 |
| TGTGTCTGGAATTTTTAGAAGTGCTAG | -0.257 |
| TAGTATATACACTTATGACTGTGCTAG | -0.0378 |
| GACGGTTTGGGGTTTCGGGACGTGCTA | 1.1 |
| TTAGGTTTCGACACCGGGTTAGTGCTA | 2.25 |
| TCAGCTTCTTTTTTATTACTGTGCTAG | 1.16 |
| GAAGGTTTCGACTTTCGGGACGTGCTA | 3.3 |
| GACGGACTGGGCATCGGGACGTGCTAG | -1.01 |
| TTAGGTTTCGGACTGGGTTAGTGCTAG | 4.22 |
| GACGGACTGGGGTATCGGTACGTGCTA | 0.151 |

Block 4
Target: CEBPE, bZIP domain (human)
Method: DHFR protein complementation
Sample: yeast
Notes: single substitutions, most at no-binding floor
Reference: wild-type JUN-FOS pair
Reading: higher = stronger binding
Parent: JUN, bZIP domain (human); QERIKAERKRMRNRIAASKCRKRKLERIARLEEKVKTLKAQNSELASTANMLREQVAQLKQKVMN; partner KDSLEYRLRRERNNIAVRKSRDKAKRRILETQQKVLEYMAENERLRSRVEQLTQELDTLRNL
| Change | binding fitness [natural log] |
| --- | --- |
| T37D | -1.02 |
| K36L | -1.13 |
| K39F | -1.37 |
| V35R | -1.42 |
| K39R | -1.04 |
| S43F | -1.17 |
| E33Q | -1.29 |
| S43N | -1.05 |
| E33S | -1.25 |
| K36W | -1.29 |
| R53C | -1.21 |
| S47H | -1.03 |
| S43D | -0.857 |
| L31G | -1.48 |
| L59H | -1.54 |
| S43K | -0.934 |
| N42M | -1.47 |

Block 5
Sequence: B1 (DTX1 RING domain)
Method: yeast two-hybrid
Sample: yeast
Notes: mostly zero background
Reference: not given
Reading: higher = stronger interaction
B1: DTX1 RING domain (UniProt Q86Y01); chain QKVKNPPDEDCTICMERLVTASGYEGVLRHKGVRPELVGRLGRCGHMYHLLCLVAMYSNGNKDGSLQCPTCKAIYGEKTGTQ
| target | lacZ reporter activity |
| --- | --- |
| UBE2E3 UBC core domain (UniProt Q969T4) | 0 |
| UBE2O UBC core domain (UniProt Q9C0C9) | 0 |
| UBE2Z UBC core domain (UniProt Q9H832) | 0 |
| BIRC6 UBC core domain (UniProt Q9NR09) | 0 |
| UBE2G1 UBC core domain (UniProt P62253) | 0 |
| UBE2B UBC core domain (UniProt P63146) | 0 |
| UBE2D1 UBC core domain (UniProt P51668) | 2480 |
| UBE2M UBC core domain (UniProt P61081) | 0 |

Block 6
Target: ABI1, truncated, D143A, DHFR fusion (Arabidopsis thaliana)
Method: DHFR PCA, deep sequencing
Sample: yeast
Notes: methotrexate growth selection, single substitutions
Added: (+)-ABA 0.39 µM
Reference: wild-type fitted maximum
Reading: higher = stronger binding
Parent: PYL1, truncated, DHFR fusion (Arabidopsis thaliana); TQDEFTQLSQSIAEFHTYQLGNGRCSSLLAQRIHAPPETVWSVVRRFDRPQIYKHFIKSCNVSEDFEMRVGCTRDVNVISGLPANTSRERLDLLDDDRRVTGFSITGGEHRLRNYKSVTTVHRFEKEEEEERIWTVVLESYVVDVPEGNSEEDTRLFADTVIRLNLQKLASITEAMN; partner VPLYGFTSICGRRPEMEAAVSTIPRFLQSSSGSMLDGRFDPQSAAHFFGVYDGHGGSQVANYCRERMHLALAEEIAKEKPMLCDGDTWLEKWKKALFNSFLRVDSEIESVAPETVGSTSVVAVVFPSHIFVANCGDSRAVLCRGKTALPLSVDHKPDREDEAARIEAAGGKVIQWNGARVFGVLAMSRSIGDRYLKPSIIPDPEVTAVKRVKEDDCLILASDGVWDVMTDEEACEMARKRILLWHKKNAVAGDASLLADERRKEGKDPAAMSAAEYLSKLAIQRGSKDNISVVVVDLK
| Change | relative binding score |
| --- | --- |
| G108I | -7.82% |
| K54E | -1.72% |
| N165Q | 3.21% |
| N165K | -5.58% |
| R113Q | 67.3% |
| V100T | -7.14% |
| G23V | 0.371% |
| P36A | 31.2% |
| V137D | 2.96% |
| R69K | 67% |
| V43Y | 5.42% |
| H16M | 1.67% |
| V100F | -2.03% |
| W134R | 3.91% |
| H110Q | 29.9% |
| P37E | -6.06% |
| E4V | 51.2% |
| P37W | -11.3% |
| Q51R | 15.3% |

Repeated from above (block 1):
| Change | normalised enrichment score |
| --- | --- |
| G9M | 2.77 |
| S2I | 0.908 |
| A3L | 0.0925 |
| G1L | 2.46 |
| R6C | 1.23 |
| P13E | 2.51 |
| L7T | -0.321 |
| D11C | 1.15 |
